Assay results collected from several papers.
Every numbered part comes from another study and shows a few of its results, in no order.

Series 1
Target: Replicase polyprotein 1ab, main protease (rep, Severe acute respiratory syndrome coronavirus 2, UniProt P0DTD1)
Effect on: enzyme activity
Action: inhibitor
Concentration: 20 µM
Setting: primary screen
| SMILES | inhibition [%] |
| --- | --- |
| N=C(N)NN=C1C=CC(=NNC(N)=S)C=C1 | 97.5 |
| COc1cc(CC2NCCc3cc(O)c(O)cc32)cc(OC)c1OC (stereo not shown) | 73.9 |
| Oc1cccc(-c2c3nc(c(-c4cccc(O)c4)c4ccc([nH]4)c(-c4cccc(O)c4)c4nc(c(-c5cccc(O)c5)c5ccc2[nH]5)CC4)C=C3)c1 | 82.4 |
| CN1C(=O)C(N2CCCCC2)S/C1=C\C(=O)O (stereo not shown) | 76.4 |

Series 2
Target: PABPC1L2, full length, GST fusion (mouse, UniProt A0ABA7IW68)
Method: RNAcompete
Molecule type: RNA
Medium: in vitro
Concentration: 20 nM
Setting: 7-mer, probes averaged, single round
Relative to: mean of 7-mers
Direction: higher = stronger binding
Target sequence (chain): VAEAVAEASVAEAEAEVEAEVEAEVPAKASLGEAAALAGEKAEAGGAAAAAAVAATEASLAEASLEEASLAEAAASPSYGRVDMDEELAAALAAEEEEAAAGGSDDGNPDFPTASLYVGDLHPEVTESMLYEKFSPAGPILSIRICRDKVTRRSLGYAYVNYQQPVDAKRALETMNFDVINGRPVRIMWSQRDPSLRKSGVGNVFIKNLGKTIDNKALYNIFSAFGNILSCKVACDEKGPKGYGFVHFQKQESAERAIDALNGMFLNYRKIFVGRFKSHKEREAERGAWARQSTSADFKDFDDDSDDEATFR
| Sequence | 7-mer Z-score |
| --- | --- |
| CCCCAGA | -0.273 |
| CAACUCU | -0.17 |
| CUGGCCU | -0.213 |
| UUAACGG | -0.141 |
| ACGUUCU | -0.347 |
| AACCGAU | 0.0225 |
| UGGCCUU | -0.244 |
| UCCCGCU | -0.472 |

Series 3
Cell line: HEK-293T-ACE2
Concentration: concentration not given
Relative to: vehicle
| Compound | cell number |
| --- | --- |
| O=C(CCCCCCC(=O)Nc1ccccc1)NO | 72.6% |
| CC(=O)NO | 105% |
| CC(=O)O[C@]1(C(C)=O)CC[C@H]2[C@@H]3C[C@H](C)C4=CC(=O)CC[C@]4(C)[C@H]3CC[C@@]21C | 102% |
| CC(C)C[C@H](NC(=O)[C@H](CCc1ccccc1)NC(=O)CN1CCOCC1)C(=O)N[C@@H](Cc1ccccc1)C(=O)N[C@@H](CC(C)C)C(=O)[C@@]1(C)CO1 | 75.6% |

Series 4
Molecule: bismuth potassium citrate
Action: inhibitor
Concentration: 20 µM
rep nsp13 helicase: Replicase polyprotein 1ab, nsp13 helicase (rep, Severe acute respiratory syndrome coronavirus 2, UniProt P0DTD1)
| target | effect on | item | setting | inhibition [%] |
| --- | --- | --- | --- | --- |
| Replicase polyprotein 1ab, nsp12 with nsp7/nsp8 (rep, Severe acute respiratory syndrome coronavirus 2, UniProt P0DTD1) | RdRp activity |  |  | -6.17 |
| rep nsp13 helicase | helicase activity | nsp13 helicase |  | 99.6 |
| rep nsp13 helicase | helicase activity | nsp13 helicase | with DTT | 1.97 |

Repeated from above (series 2):
| Sequence | 7-mer Z-score |
| --- | --- |
| UUAACGG | -0.141 |
| ACGUUCU | -0.347 |
